Measured values pooled from the literature.
Each numbered part is a random draw from the data of one study; scales do not carry over between parts.
UniProt P42680, sequence (whole entry, looked up): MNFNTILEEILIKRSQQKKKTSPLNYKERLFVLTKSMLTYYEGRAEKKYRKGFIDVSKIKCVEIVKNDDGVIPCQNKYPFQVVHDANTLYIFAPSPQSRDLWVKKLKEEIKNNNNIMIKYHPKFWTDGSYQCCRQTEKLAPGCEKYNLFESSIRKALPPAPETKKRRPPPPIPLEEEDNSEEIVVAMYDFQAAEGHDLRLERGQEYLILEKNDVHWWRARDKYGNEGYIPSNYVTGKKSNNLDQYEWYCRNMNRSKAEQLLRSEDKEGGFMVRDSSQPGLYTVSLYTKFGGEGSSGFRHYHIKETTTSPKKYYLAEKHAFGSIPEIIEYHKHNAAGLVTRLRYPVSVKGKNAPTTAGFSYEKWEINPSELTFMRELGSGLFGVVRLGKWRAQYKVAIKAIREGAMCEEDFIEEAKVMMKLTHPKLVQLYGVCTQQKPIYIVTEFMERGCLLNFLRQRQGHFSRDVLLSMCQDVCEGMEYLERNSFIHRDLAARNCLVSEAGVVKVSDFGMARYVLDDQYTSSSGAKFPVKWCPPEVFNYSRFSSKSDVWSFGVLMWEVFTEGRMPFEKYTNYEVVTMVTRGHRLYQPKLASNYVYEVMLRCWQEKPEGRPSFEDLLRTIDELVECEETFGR
UniProt P10721, sequence (whole entry, unmodified, looked up): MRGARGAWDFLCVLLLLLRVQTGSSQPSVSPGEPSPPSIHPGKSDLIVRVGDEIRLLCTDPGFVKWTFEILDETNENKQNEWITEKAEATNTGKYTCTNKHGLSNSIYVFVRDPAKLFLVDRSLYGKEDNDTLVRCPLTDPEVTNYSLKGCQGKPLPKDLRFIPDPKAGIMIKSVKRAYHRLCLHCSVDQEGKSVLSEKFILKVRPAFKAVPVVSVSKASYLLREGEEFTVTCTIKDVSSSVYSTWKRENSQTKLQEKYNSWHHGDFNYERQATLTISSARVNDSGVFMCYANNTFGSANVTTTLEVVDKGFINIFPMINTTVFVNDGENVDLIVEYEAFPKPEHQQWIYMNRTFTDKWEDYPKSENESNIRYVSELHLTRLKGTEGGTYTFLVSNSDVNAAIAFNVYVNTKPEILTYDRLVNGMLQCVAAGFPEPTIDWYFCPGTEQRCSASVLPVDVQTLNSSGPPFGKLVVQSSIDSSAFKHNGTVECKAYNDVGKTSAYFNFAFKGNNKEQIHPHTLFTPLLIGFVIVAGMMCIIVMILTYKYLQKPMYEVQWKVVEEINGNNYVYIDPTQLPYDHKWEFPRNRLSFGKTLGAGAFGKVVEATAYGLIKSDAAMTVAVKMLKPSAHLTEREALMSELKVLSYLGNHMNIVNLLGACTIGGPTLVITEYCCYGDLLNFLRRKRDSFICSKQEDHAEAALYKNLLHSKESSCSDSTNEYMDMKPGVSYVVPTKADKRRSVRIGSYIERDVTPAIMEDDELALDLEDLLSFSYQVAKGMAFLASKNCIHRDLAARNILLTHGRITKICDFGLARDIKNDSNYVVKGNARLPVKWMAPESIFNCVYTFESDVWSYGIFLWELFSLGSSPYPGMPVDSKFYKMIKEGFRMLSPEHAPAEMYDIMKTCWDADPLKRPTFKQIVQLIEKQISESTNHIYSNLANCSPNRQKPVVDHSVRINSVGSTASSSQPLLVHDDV
UniProt P43403, sequence (whole entry, looked up): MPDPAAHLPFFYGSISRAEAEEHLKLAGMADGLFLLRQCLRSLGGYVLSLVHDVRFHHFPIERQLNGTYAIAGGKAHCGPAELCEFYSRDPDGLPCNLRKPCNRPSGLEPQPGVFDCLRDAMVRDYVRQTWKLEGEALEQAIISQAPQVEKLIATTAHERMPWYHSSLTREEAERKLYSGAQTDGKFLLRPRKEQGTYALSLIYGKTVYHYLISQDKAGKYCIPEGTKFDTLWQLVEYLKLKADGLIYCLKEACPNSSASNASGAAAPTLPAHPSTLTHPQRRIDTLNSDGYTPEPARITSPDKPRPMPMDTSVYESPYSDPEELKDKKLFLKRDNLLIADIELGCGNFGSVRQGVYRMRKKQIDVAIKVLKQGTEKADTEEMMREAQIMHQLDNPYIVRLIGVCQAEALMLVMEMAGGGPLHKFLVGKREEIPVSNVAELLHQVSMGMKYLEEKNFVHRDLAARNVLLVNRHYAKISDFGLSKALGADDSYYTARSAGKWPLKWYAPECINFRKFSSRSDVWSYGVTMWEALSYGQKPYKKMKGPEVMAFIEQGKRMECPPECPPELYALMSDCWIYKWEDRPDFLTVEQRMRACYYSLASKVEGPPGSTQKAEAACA

Series 1
Target: DNA polymerase theta, ATPase domain (POLQ, Homo sapiens, UniProt O75417)
UniProt O75417, sequence (whole entry, unmodified, looked up): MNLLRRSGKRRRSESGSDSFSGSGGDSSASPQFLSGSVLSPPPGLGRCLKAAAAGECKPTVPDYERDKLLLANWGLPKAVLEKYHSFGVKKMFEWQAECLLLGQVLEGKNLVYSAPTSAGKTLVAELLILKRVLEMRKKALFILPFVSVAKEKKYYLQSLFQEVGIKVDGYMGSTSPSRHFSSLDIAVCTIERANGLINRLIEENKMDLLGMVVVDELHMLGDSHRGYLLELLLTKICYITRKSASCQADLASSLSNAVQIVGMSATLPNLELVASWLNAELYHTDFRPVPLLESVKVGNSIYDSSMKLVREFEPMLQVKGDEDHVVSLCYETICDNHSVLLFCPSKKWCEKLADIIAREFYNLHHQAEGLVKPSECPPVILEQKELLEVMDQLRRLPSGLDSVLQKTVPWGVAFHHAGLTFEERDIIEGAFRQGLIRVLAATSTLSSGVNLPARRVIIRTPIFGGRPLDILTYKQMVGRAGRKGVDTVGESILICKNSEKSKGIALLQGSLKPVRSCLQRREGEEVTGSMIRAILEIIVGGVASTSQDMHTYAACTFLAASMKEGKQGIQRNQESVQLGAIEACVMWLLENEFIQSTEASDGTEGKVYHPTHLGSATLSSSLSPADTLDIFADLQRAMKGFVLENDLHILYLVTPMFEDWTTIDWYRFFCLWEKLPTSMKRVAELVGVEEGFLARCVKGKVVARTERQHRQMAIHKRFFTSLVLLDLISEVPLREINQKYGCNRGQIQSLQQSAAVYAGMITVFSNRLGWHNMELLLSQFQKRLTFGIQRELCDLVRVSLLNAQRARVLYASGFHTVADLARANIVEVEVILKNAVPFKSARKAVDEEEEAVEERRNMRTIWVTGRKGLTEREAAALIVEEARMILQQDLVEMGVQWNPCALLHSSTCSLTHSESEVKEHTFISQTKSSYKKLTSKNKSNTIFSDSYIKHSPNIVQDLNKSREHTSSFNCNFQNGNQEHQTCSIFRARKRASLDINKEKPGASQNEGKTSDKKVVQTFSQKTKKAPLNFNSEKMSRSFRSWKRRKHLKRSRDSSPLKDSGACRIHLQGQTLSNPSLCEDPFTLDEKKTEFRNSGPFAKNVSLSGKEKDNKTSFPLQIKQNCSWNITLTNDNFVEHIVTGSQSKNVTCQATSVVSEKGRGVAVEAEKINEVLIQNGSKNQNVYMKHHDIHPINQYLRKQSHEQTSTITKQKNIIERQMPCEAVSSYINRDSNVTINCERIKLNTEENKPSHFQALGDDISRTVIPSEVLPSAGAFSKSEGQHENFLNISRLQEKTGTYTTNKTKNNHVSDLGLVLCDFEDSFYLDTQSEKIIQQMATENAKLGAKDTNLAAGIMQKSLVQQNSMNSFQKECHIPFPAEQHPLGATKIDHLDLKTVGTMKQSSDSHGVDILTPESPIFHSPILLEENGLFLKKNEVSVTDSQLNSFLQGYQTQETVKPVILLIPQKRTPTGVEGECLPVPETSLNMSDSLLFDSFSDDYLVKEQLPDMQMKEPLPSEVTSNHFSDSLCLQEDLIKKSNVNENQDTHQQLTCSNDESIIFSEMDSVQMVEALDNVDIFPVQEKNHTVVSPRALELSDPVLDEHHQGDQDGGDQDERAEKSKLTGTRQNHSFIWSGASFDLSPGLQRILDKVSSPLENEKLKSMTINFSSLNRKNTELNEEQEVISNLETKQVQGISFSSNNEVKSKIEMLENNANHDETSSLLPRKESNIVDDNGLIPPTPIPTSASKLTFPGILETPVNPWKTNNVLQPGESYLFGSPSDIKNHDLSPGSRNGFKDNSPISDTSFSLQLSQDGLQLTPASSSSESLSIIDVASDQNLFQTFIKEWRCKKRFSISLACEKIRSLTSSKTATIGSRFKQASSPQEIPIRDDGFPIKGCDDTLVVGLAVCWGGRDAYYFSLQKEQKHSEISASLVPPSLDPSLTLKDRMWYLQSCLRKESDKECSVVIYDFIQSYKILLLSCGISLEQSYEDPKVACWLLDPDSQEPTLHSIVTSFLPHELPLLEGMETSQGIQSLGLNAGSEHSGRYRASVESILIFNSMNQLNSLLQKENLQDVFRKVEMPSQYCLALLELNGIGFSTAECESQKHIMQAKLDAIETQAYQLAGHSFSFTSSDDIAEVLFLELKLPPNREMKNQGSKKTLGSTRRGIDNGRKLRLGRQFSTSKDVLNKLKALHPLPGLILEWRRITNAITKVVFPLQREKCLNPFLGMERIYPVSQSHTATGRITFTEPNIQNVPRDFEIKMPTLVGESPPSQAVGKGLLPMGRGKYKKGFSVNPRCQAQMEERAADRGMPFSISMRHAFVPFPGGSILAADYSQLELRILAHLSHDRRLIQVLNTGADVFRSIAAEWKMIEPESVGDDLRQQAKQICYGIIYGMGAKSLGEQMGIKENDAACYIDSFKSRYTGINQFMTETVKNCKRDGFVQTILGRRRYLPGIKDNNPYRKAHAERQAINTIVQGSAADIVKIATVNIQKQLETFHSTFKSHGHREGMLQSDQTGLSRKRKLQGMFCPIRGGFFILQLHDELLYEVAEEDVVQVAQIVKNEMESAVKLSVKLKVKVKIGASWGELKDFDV
Observed: enzyme activity
Action: inhibitor
Tested at: 77 µM
Reference: untreated
SMILES	remaining activity
CCCCc1nc2cc(/C=C/C(=O)NO)ccc2n1CCN(CC)CC	97.8%
CCNC(=O)N1CCN(CCCC(c2ccc(F)cc2)c2ccc(F)cc2)CC1	97.5%
N#CC[C@H](C1CCCC1)n1cc(-c2ncnc3[nH]ccc23)cn1	104%
C[C@@H](O)[C@H]1C(=O)N2C(C(=O)O)=C(S[C@@H]3CN[C@H](CNS(N)(=O)=O)C3)[C@H](C)[C@H]12	93.5%
COc1ccccc1N1CCN(CCN2C(=O)CC3(CCCC3)CC2=O)CC1	103%
NC(=S)c1ccc[n+]([C@@H]2O[C@H](COP(=O)([O-])OP(=O)(O)OC[C@H]3O[C@@H](n4cnc5c(N)ncnc54)[C@H](OP(=O)(O)O)[C@@H]3O)[C@@H](O)[C@H]2O)c1	99.6%
CNC(=O)c1cc2c(cn1)[nH]c1ccccc12	107%
Nc1c(CC(=O)O)cccc1C(=O)c1ccc(Br)cc1	94.5%
CCC[C@H](NC(=O)[C@@H]1[C@H]2CCC[C@H]2CN1C(=O)[C@@H](NC(=O)[C@@H](NC(=O)c1cnccn1)C1CCCCC1)C(C)(C)C)C(=O)C(=O)NC1CC1	98.7%
CCCCc1oc2ccc(NS(C)(=O)=O)cc2c1C(=O)c1ccc(OCCCN(CCCC)CCCC)cc1	100%

Series 2
Target: Cyclin-dependent kinase 5, with p35 (CDK5, Homo sapiens, UniProt Q00535)
UniProt Q00535, sequence (whole entry, looked up): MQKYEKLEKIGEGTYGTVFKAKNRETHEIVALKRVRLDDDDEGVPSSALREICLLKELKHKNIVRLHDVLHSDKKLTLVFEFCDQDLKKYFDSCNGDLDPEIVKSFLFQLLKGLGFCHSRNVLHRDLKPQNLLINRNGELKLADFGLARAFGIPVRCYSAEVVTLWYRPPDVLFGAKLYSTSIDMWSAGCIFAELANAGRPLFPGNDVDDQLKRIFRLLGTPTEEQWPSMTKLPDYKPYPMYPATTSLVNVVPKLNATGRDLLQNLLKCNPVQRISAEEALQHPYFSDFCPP
Observed: enzyme activity
Action: inhibitor
Tested at: 0.5 µM
Reference: control
SMILES	remaining activity [%]
FC(F)(F)c1ccc(/C=C/c2nc(COc3ccc(CCCCn4ccnn4)cc3)co2)cc1	99.4
COc1cc2c(N3CCN(C(=O)Nc4ccc(OC(C)C)cc4)CC3)ncnc2cc1OCCCN1CCCCC1	99.4
O=Nc1c(-c2c(O)[nH]c3ccccc23)[nH]c2ccccc12	23.8
COc1cc2c(Nc3ccc(Br)cc3F)ncnc2cc1OCC1CCN(C)CC1	107
c1cc(-c2cnn3cc(-c4ccc(OCCN5CCCCC5)cc4)cnc23)ccn1	67.7
CC(C)N(CCC(=O)c1ccc2ccccc2c1)Cc1ccccc1	103
NC(=O)c1cccc(-c2cc(Nc3ccc(OC(F)(F)F)cc3)ncn2)c1	96
Nc1nc(Nc2ccc(S(N)(=O)=O)cc2)nn1C(=S)Nc1c(F)cccc1F	11.3
N#C/C(=C(/N)SC1C=CC=CC1)c1cccc(C(O)c2ccncc2)c1 (stereo not shown)	91
N#CC(c1ccnc(NCCc2cccnc2)n1)c1nc2ccccc2s1 (stereo not shown)	97.2
NC(=O)c1ccc(-c2nc(-c3ccc4c(c3)OCCO4)c(-c3ccccn3)[nH]2)cc1	98

Series 3
Compound: Cc1ccc(NC(=O)c2ccnc(C(F)(F)F)c2)cc1-c1cc(OCCO)nc(N2CCOCC2)c1
Observed: binding
Tested at: 1 µM
target	technique	remaining binding [%]
TEC (Homo sapiens, UniProt P42680)	competition with immobilised ligand	90
PIK3CD (Homo sapiens, UniProt O00329)		100
PAK1 (Homo sapiens, UniProt Q13153)		85
TGFBR1 (Homo sapiens, UniProt P36897)	competition with immobilised ligand	100
CSNK2A1 (Homo sapiens, UniProt P68400)		85
NIM1K (Homo sapiens, UniProt Q8IY84)		84
MAPK10 (Homo sapiens, UniProt P53779)		90
HASPIN (Homo sapiens, UniProt Q8TF76)		100
IGF1R (Homo sapiens, UniProt P08069)		100
CDK13 (Homo sapiens, UniProt Q14004)		77
EPHA3 (Homo sapiens, UniProt P29320)	competition with immobilised ligand	97
Ribosomal protein S6 kinase alpha-5, C-terminal kinase domain (RPS6KA5, Homo sapiens, UniProt O75582)	competition with immobilised ligand	100
MAPKAPK5 (Homo sapiens, UniProt Q8IW41)		100
NEK9 (Homo sapiens, UniProt Q8TD19)		100
SLK (Homo sapiens, UniProt Q9H2G2)	competition with immobilised ligand	92

Series 4
SMILES: Cn1cc(Cl)c2c(Oc3c(F)cc(Nc4cc(Cl)nc(N)n4)cc3F)ccnc21
Technique: competition with immobilised ligand
Tested at: 0.1 µM
target	observed	remaining binding [%]
KIT (Homo sapiens, UniProt P10721, T670I/V559D)	cell-free assay	91
EPHA6 (Homo sapiens, UniProt Q9UF33)	cell-free assay	100
HIPK2 (Homo sapiens, UniProt Q9H2X6)	cell-free assay	100
PIP4K2B (Homo sapiens, UniProt P78356)	cell-free assay	76
ZAP70 (Homo sapiens, UniProt P43403)	cell-free assay	100
BRAF (Homo sapiens, UniProt P15056)	cell-free assay	100
EGFR (Homo sapiens, UniProt P00533, del747-752/P753S)	cell-free assay	77
TEC (Homo sapiens, UniProt P42680)	binding	100
PIK3C2G (Homo sapiens, UniProt O75747)	cell-free assay	100
CDK17 (Homo sapiens, UniProt Q00537)	cell-free assay	100
PIK3C3 (Homo sapiens, UniProt Q8NEB9)	cell-free assay	75
CDK7 (Homo sapiens, UniProt P50613)	cell-free assay	100
FES (Homo sapiens, UniProt P07332)	cell-free assay	100
PIP5K1C (Homo sapiens, UniProt O60331)	cell-free assay	93
FLT3 (Homo sapiens, UniProt P36888, ITD)	cell-free assay	100
FLT3 (Homo sapiens, UniProt P36888, N841I)	cell-free assay	96
Tyrosine-protein kinase ABL1, phosphorylated (ABL1, Homo sapiens, UniProt P00519, M351T)	cell-free assay	90
STK3 (Homo sapiens, UniProt Q13188)	cell-free assay	92
KIT (Homo sapiens, UniProt P10721, V559D/V654A)	cell-free assay	90
NLK (Homo sapiens, UniProt Q9UBE8)	cell-free assay	100
SRPK2 (Homo sapiens, UniProt P78362)	cell-free assay	78
MAPK8 (Homo sapiens, UniProt P45983)	cell-free assay	76
